Assay results gathered from unrelated publications.
Protocols differ between the studies behind these lines.
Organism: Escherichia coli

Cc1cc(-c2cn[nH]c2-c2cccc(OCc3cccc(C#N)c3)c2)cc(C)n1  MIC (broth microdilution; ΔrfaC JW3596): 0.06 µg/mL
CC(C)Oc1c(NC(=O)c2ccc(N3C(=O)C[C@H](NC(=O)c4cc(F)c(/N=N/c5c(F)cccc5F)c(F)c4)C3=O)cc2)ccc(C(=O)N/N=C/c2c(Cl)cncc2Cl)c1O  MIC (BW25113; 18 h, 37 °C, dark-adapted state): > 6.4 µg/mL
CC1(C)CC[C@]2(C(=O)O)CC[C@]3(C)C(=CC[C@@H]4[C@@]5(C)CC[C@H](O)C(C)(C)[C@@H]5CC[C@]43C)[C@@H]2C1  MIC (BL21 pET28a-OXA-1): 512 µg/mL
CC[C@H](C)[C@H](NC(=O)[C@H](CC(C)C)NC(=O)[C@@H](NC(=O)[C@H](Cc1ccc(O)cc1)NC(=O)[C@H](CO)NC(=O)CNC(=O)[C@H](CCCNC(=N)N)NC(=O)[C@H](CCCNC(=N)N)NC(=O)[C@H](CCCNC(=N)N)NC(=O)[C@@H]1CCCN1C(=O)[C@H](CCCCN)NC(=O)[C@H](Cc1c[nH]c2ccccc12)NC(=O)[C@@H](NC(=O)[C@H](Cc1c[nH]c2ccccc12)NC(=O)[C@H](CCCCN)NC(=O)[C@H](CCCNC(=N)N)NC(=O)[C@H](CCCNC(=N)N)NC(=O)[C@@H]1CCCN1C(=O)[C@H](CO)NC(=O)[C@H](CCCNC(=N)N)NC(=O)[C@H](CO)NC(=O)[C@H](CCCNC(=N)N)NC(=O)[C@@H](N)CCCNC(=N)N)[C@@H](C)O)[C@@H](C)O)C(=O)N[C@@H](CO)C(=O)N[C@@H](CCC(N)=O)C(=O)NCC(=O)NCC(=O)N[C@@H](CC(N)=O)C(=O)O  MIC (ATCC 25922; highest concentration 50 µM): 21.8 µM
CC1(C)S[C@@H]2[C@H](NC(=O)C(C(=O)O)c3ccccc3)C(=O)N2[C@H]1C(=O)O (stereo partly drawn)  MIC (broth microdilution; JW0790-2 fiu deletion mutant; ferric iron uptake gene): 6.25 µg/mL
CC[C@H](C)[C@H](NC(=O)[C@H](CCCCN)NC(=O)[C@H](CC(=O)O)NC(=O)[C@H](CC(C)C)NC(=O)[C@@H](NC(=O)[C@H](CC(N)=O)NC(=O)[C@H](CC(C)C)NC(=O)[C@@H](NC(=O)[C@H](Cc1ccccc1)NC(=O)[C@H](CCCCN)NC(=O)[C@H](CCCCN)NC(=O)CNC(=O)[C@H](C)NC(=O)[C@H](CC(N)=O)NC(=O)[C@H](CCCCN)NC(=O)[C@H](Cc1ccccc1)NC(=O)[C@H](CC(N)=O)NC(=O)[C@H](CCC(=O)O)NC(=O)[C@H](Cc1c[nH]c2ccccc12)NC(=O)[C@H](CC(C)C)NC(=O)[C@@H](N)CO)[C@@H](C)CC)[C@@H](C)CC)C(=O)N[C@@H](CCCNC(=N)N)C(N)=O  MIC (ATCC 8739; overnight, 37 °C, with: 1 mM MgCl2): 2 µM
CC1(C)SC2C(NC(=O)C(NC(=O)C3=C(O)CNC3=O)c3ccccc3)C(=O)N2C1C(=O)O (stereo not drawn)  MIC (broth microdilution; isolate IU, CTX-M-14, TEM-1; no clavulanic acid): > 200 µg/mL
CC(C)[C@H](N)C(=O)N[C@@H](CC(=O)O)C(=O)N[C@@H](CCCCN)C(=O)N[C@@H](CCCCN)C(=O)N1CCC[C@H]1C(=O)N[C@@H](Cc1ccc(O)cc1)C(=O)N[C@@H](CCCNC(=N)N)C(=O)N1CCC[C@H]1C(=O)N[C@@H](CCCNC(=N)N)C(=O)N1CCC[C@H]1C(=O)N[C@@H](CCCNC(=N)N)C(=O)N1CCC[C@H]1C(=O)N1CCC[C@H]1C(=O)N[C@@H](CCCNC(=N)N)C(=O)N[C@@H](CCCNC(=N)N)C(N)=O  MIC (broth microdilution; MRE600; 16 h, 37 °C, 25% Mueller-Hinton broth): 1 µg/mL
CC[C@H](C)[C@H](NC(=O)[C@H](CCCCN)NC(=O)[C@H](CCCCN)NC(=O)[C@H](CC(C)C)NC(=O)[C@H](CCCCN)NC(=O)[C@H](CCCCN)NC(=O)[C@H](Cc1ccccc1)NC(=O)[C@H](Cc1ccccc1)NC(=O)[C@H](CCCNC(=N)N)NC(=O)[C@H](CCCNC(=N)N)NC(=O)[C@@H](NC(=O)[C@H](CCCCN)NC(=O)[C@H](CCCNC(=N)N)NC(=O)[C@@H](NC(=O)[C@@H](N)Cc1ccc(O)cc1)[C@@H](C)CC)[C@@H](C)CC)C(=O)N[C@@H](CC(C)C)C(=O)N[C@@H](CCCCN)C(=O)N[C@@H](CCCCN)C(N)=O  MIC (BL21(DE3), Mueller-Hinton broth; 20 h): 1.54 µM
CC[C@H](C)[C@H](NC(=O)[C@H](CC(C)C)NC(=O)[C@H](CCCCN)NC(=O)[C@@H](NC(=O)[C@H](C)NC(=O)[C@H](CCC(=O)O)NC(=O)[C@H](Cc1c[nH]cn1)NC(=O)[C@@H](NC(=O)[C@H](CCCCN)NC(=O)[C@H](CCC(N)=O)NC(=O)[C@H](Cc1ccccc1)NC(=O)[C@@H](N)C(C)C)[C@@H](C)CC)[C@@H](C)CC)C(N)=O  MIC (CLSI broth microdilution; ATCC 25922; 18 h, 37 °C): > 128 µM
C[C@H]1COc2c(N3CCN(C)CC3)c(F)cc3c(=O)c(C(=O)O)cn1c23  MIC (1191008, multidrug-resistant): > 8 µg/mL
C[C@@H](O)[C@H](NC(=O)[C@H](Cc1c[nH]c2ccccc12)NC(=O)[C@H](Cc1c[nH]c2ccccc12)NC(=O)[C@H](Cc1c[nH]c2ccccc12)NC(=O)[C@@H](NC(=O)[C@H](Cc1c[nH]c2ccccc12)NC(=O)[C@H](CCCNC(=N)N)NC(=O)[C@@H](N)CCCNC(=N)N)[C@@H](C)O)C(=O)N[C@@H](Cc1c[nH]c2ccccc12)C(=O)N[C@@H](CCCNC(=N)N)C(=O)N[C@@H](CCCNC(=N)N)C(N)=O  MIC (broth microdilution; 25922, Mueller-Hinton broth; 24 h, 37 °C, lowest concentration, 95% inhibition, with: BSA): 2 µM
CCCCCC(=O)N[C@@H](CCCNC(=N)N)C(=O)N[C@@H](CCCNC(=N)N)C(=O)N[C@@H](CCCNC(=N)N)C(=O)N[C@@H](CCCNC(=N)N)C(=O)N[C@H](C(=O)N[C@@H](CC(C)C)C(=O)N[C@H](C(=O)N[C@@H](CCCCN)C(=O)N[C@@H](CCCCN)C(=O)N[C@H](C(=O)N[C@@H](CC(C)C)C(=O)N[C@@H](CCCCN)C(=O)N[C@@H](CC(C)C)C(=O)N[C@@H](CCCCN)C(=O)N[C@@H](CO)C(=O)N[C@@H](CO)C(=O)N[C@@H](C)C(=O)N[C@@H](Cc1ccc(O)cc1)C(N)=O)C(C)C)[C@@H](C)CC)[C@@H](C)CC  MIC (checkerboard; 24 h, 37 °C, alone, rifampicin plate): 32 µM
CC(C)C[C@@H](NC(=O)CNC(=O)[C@@H](CCCCN)NC(=O)[C@@H](CC(C)C)NC(=O)[C@@H](CCCCN)NC(=O)[C@@H](CCCNC(=N)N)NC(=O)[C@@H](CC(C)C)NC(=O)[C@@H](CC(C)C)NC(=O)[C@@H](CCCNC(=N)N)NC(=O)[C@H](N)CCCNC(=N)N)C(=O)N[C@H](CCCCN)C(=O)N[C@H](CCCCN)C(=O)N[C@H](Cc1ccc(O)cc1)C(=O)N[C@H](CC(C)C)C(=O)N[C@H](Cc1ccc(O)cc1)C(=O)N[C@H](Cc1ccccc1)C(=O)N[C@H](CCCCN)C(=O)N[C@H](CC(C)C)C(=O)N[C@H](CCC(N)=O)C(=O)N[C@H](CC(C)C)C(=O)N[C@H](CC(C)C)C(=O)N[C@H](CCCCN)C(=O)N[C@H](CCCCN)C(N)=O  MIC (KCTC 1682, Mueller-Hinton broth; with: 150 mM NaCl): 8 µM
CC[C@H](C)[C@H](NC(=O)CNC(=O)[C@H](CCC(=O)O)NC(=O)[C@H](CO)NC(=O)[C@@H](NC(=O)[C@H](CCCNC(=N)N)NC(=O)[C@H](CCCCN)NC(=O)[C@H](CCCCN)NC(=O)[C@H](C)NC(=O)[C@H](CO)NC(=O)[C@H](CC(N)=O)NC(=O)[C@H](CCC(=O)O)NC(=O)[C@H](CC(C)C)NC(=O)[C@H](CCCCN)NC(=O)[C@H](CCCCN)NC(=O)[C@H](C)NC(=O)[C@@H](NC(=O)[C@H](CCCCN)NC(=O)[C@H](CO)NC(=O)[C@H](CC(C)C)NC(=O)[C@H](Cc1c[nH]c2ccccc12)NC(=O)[C@@H](N)CO)[C@@H](C)O)[C@@H](C)CC)C(=O)N[C@@H](C)C(=O)N[C@H](C(=O)N[C@@H](C)C(=O)N[C@H](C(=O)N[C@@H](CCC(N)=O)C(=O)NCC(=O)NCC(=O)N1CCC[C@H]1C(=O)N[C@@H](CCCNC(=N)N)C(=O)O)[C@@H](C)CC)[C@@H](C)CC  MIC (broth dilution; K12 BW25113; 18 h, 37 °C): 0.8 µM
CCCCCCC/C=C/C(=O)N1C(=O)/C(=C(\O)c2ccc(OCOCCOC)cc2)C(=O)C1CC(C)C (stereo not drawn)  MIC (K12 ΔtolC): 3.13 µg/mL
CC[C@H](C)[C@H](NC(=O)CNC(=O)[C@H](CC(=O)O)NC(=O)[C@H](CCCNC(=N)N)NC(=O)[C@@H](NC(=O)[C@H](CC(N)=O)NC(=O)[C@H](CCCNC(=N)N)NC(=O)CNC(=O)[C@@H](NC(=O)[C@H](CCCCN)NC(=O)[C@H](CCC(=O)O)NC(=O)[C@@H](NC(=O)[C@H](CCCCN)NC(=O)[C@H](CCCCN)NC(=O)[C@H](Cc1ccccc1)NC(=O)[C@@H](NC(=O)[C@H](CCCCN)NC(=O)[C@H](Cc1c[nH]c2ccccc12)NC(=O)[C@@H](N)CCCNC(=N)N)[C@@H](C)CC)[C@@H](C)CC)C(C)C)C(C)C)C(=O)N[C@H](C(=O)N[C@@H](CCCCN)C(=O)N[C@@H](C)C(=O)NCC(=O)N1CCC[C@H]1C(=O)N[C@@H](C)C(=O)N[C@H](C(=O)N[C@@H](C)C(=O)N[C@H](C(=O)N[C@H](C(=O)NCC(=O)N[C@@H](CCC(N)=O)C(=O)N[C@@H](C)C(=O)N[C@@H](C)C(=O)N[C@H](C(=O)N[C@H](C(=O)N[C@H](C(=O)N[C@@H](CCCCN)C(N)=O)C(C)C)C(C)C)[C@@H](C)O)C(C)C)C(C)C)C(C)C)[C@@H](C)CC  MIC (NCCP 16046 carbapenem-resistant): 1 µM
CC[C@H](C)[C@H](NC(=O)[C@@H]1CCCN1C(=O)[C@H](CS)NC(=O)[C@H](CCCNC(=N)N)NC(=O)[C@H](CCCNC(=N)N)NC(=O)[C@H](CCCNC(=N)N)NC(=O)[C@@H]1CCCN1C(=O)[C@H](Cc1ccccc1)NC(=O)[C@H](CC(C)C)NC(=O)[C@H](CO)NC(=O)[C@H](CCC(N)=O)NC(=O)[C@H](CCC(=O)O)NC(=O)[C@H](Cc1c[nH]c2ccccc12)NC(=O)CNC(=O)[C@H](CCSC)NC(=O)[C@H](C)NC(=O)[C@H](CCCNC(=N)N)NC(=O)[C@H](CO)NC(=O)[C@H](C)NC(=O)[C@H](CCCCN)NC(=O)[C@H](CC(C)C)NC(=O)[C@H](CCCNC(=N)N)NC(=O)[C@H](CC(N)=O)NC(=O)[C@H](CS)NC(=O)[C@@H](N)CC(C)C)C(=O)N1CCC[C@H]1C(=O)N[C@@H](CCCCN)C(=O)N[C@H](C(=O)N[C@H](C(=O)N[C@@H](Cc1ccc(O)cc1)C(=O)N[C@@H](CCCCN)C(=O)N[C@@H](CC(C)C)C(=O)N[C@@H](CCCNC(=N)N)C(=O)O)[C@@H](C)O)[C@@H](C)O  MIC (broth microdilution; K88, Mueller-Hinton broth; 37 °C): 35.4 µM
O=C(O)CN1CCN(CC(=O)O)CCN(CC(=O)O)CCN(CC(=O)O)CC1  MIC (NDM-1 producing; compound alone): > 2000 µM
CC[C@H](C)[C@H](NC(=O)CNC(=O)[C@H](CC(=O)O)NC(=O)[C@H](CCCNC(=N)N)NC(=O)[C@@H](NC(=O)[C@H](CC(N)=O)NC(=O)[C@H](CCCNC(=N)N)NC(=O)CNC(=O)[C@@H](NC(=O)[C@H](CCCCN)NC(=O)[C@H](CCC(=O)O)NC(=O)[C@@H](NC(=O)[C@H](CCCCN)NC(=O)[C@H](CCCCN)NC(=O)[C@H](C)NC(=O)[C@@H](NC(=O)[C@H](CCCCN)NC(=O)[C@H](C)NC(=O)[C@@H](N)CCCNC(=N)N)[C@@H](C)CC)[C@@H](C)CC)C(C)C)C(C)C)C(=O)N[C@H](C(=O)N[C@@H](CCCCN)C(=O)N[C@@H](C)C(=O)NCC(=O)N1CCC[C@H]1C(=O)N[C@@H](C)C(=O)N[C@H](C(=O)N[C@@H](C)C(=O)N[C@H](C(=O)N[C@H](C(=O)NCC(=O)N[C@@H](CCC(N)=O)C(=O)N[C@@H](C)C(=O)N[C@@H](C)C(=O)N[C@H](C(=O)N[C@H](C(=O)N[C@H](C(=O)N[C@@H](CCCCN)C(N)=O)C(C)C)C(C)C)[C@@H](C)O)C(C)C)C(C)C)C(C)C)[C@@H](C)CC  MIC (K1 ATCC 700973, Mueller-Hinton broth; 16 h, 37 °C; growth inhibition over 99%): 8 µM
CO/N=C(\C(=O)N[C@@H]1C(=O)N2C(C(=O)O)=C(COC(C)=O)CS[C@H]12)c1csc(N)n1  MIC (BL21(DE3) wild type): < 1.75 µg/mL

Excerpt of the above:
CO/N=C(\C(=O)N[C@@H]1C(=O)N2C(C(=O)O)=C(COC(C)=O)CS[C@H]12)c1csc(N)n1  MIC (BL21(DE3) wild type): < 1.75 µg/mL
